Published values from different studies.
Protocols differ between the studies behind these lines. ± gives the spread as reported.
Organism: Bacillus subtilis

Structure (SMILES)	assay	system	setting	MIC
CCCCCCCC/C=C\CCCc1cc(O)cc(O)c1	broth microdilution	strain 168	overnight, 37 °C	1 to 8 µg/mL
Cc1cc(Cl)ccc1-c1ccc(/C=C2\SC(=S)N(CC(=O)O)C2=O)o1	microbial growth	ATCC6051		~3 µg/mL
CC[C@H](C)[C@H](NC(=O)CN)C(=O)NCC(=O)N[C@@H](C)C(=O)N[C@H](C(=O)N[C@@H](CC(C)C)C(=O)N[C@@H](CCCCN)C(=O)N[C@H](C(=O)N[C@@H](CC(C)C)C(=O)N[C@H](C(=O)N[C@H](C(=O)NCC(=O)N[C@@H](CC(C)C)C(=O)N1CCC[C@H]1C(=O)N[C@@H](C)C(=O)N[C@@H](CC(C)C)C(=O)N[C@H](C(=O)N[C@@H](CO)C(=O)N[C@@H](Cc1c[nH]c2ccccc12)C(=O)N[C@H](C(=O)N[C@@H](CCCCN)C(=O)N[C@@H](CCCNC(=N)N)C(=O)N[C@@H](CCCCN)C(=O)N[C@@H](CCCNC(=N)N)C(=O)N[C@@H](CCC(N)=O)C(=O)N[C@@H](CCC(N)=O)C(N)=O)[C@@H](C)CC)[C@@H](C)CC)[C@@H](C)O)[C@@H](C)O)C(C)C)C(C)C	broth microdilution	KCTC 3068	16 h, 37 °C	0.8 µM
CC[C@H](C)[C@H](NC(=O)[C@H](C)NC(=O)[C@H](CCCCN)NC(=O)[C@H](CC(C)C)NC(=O)[C@H](C)NC(=O)[C@@H](NC(=O)[C@H](Cc1c[nH]cn1)NC(=O)[C@H](CC(C)C)NC(=O)[C@@H](NC(=O)[C@@H](NC(=O)[C@H](CCCCN)NC(=O)[C@H](CCCCN)NC(=O)[C@H](C)NC(=O)[C@H](CO)NC(=O)[C@H](CCCCN)NC(=O)[C@H](Cc1ccccc1)NC(=O)[C@@H](NC(=O)[C@H](CCCCN)NC(=O)[C@H](CC(C)C)NC(=O)[C@H](Cc1ccccc1)NC(=O)[C@H](CO)NC(=O)[C@H](CCCCN)NC(=O)[C@H](Cc1c[nH]c2ccccc12)NC(=O)[C@H](CCCCN)NC(C)=O)[C@@H](C)O)[C@@H](C)O)C(C)C)[C@@H](C)O)C(=O)N[C@@H](CO)C(=O)N[C@@H](CO)C(N)=O	broth dilution	ATCC 49619, Mueller-Hinton broth	24 h, 37 °C	8 µg/mL
CC[C@H](C)[C@H](N)C(=O)N[C@@H](CCCCN)C(=O)N[C@@H](Cc1c[nH]c2ccccc12)C(=O)N[C@@H](CCCCN)C(=O)N[C@@H](CCCCN)C(=O)N[C@@H](CC(C)C)C(=O)N[C@@H](CC(C)C)C(=O)N[C@@H](CCCNC(=N)N)C(=O)N[C@@H](C)C(=O)N[C@@H](C)C(=O)N[C@@H](CCCCN)C(=O)N[C@@H](CCCNC(=N)N)C(=O)N[C@H](C(=O)N[C@@H](CC(C)C)C(N)=O)[C@@H](C)CC	broth microdilution	168		12.5 µM
CC[C@H](C)[C@H](NC(=O)CNC(=O)[C@H](CC(=O)O)NC(=O)[C@H](CCCNC(=N)N)NC(=O)[C@@H](NC(=O)[C@H](CC(N)=O)NC(=O)[C@H](CCCNC(=N)N)NC(=O)CNC(=O)[C@@H](NC(=O)[C@H](CCCCN)NC(=O)[C@H](CCC(=O)O)NC(=O)[C@@H](NC(=O)[C@H](CCCCN)NC(=O)[C@H](CCCCN)NC(=O)[C@H](Cc1ccccc1)NC(=O)[C@@H](NC(=O)[C@H](CCCCN)NC(=O)[C@H](Cc1c[nH]c2ccccc12)NC(=O)[C@@H](N)CCCCN)[C@@H](C)CC)[C@@H](C)CC)C(C)C)C(C)C)C(=O)N[C@H](C(=O)N[C@@H](CCCCN)C(=O)N[C@@H](C)C(=O)NCC(=O)N1CCC[C@H]1C(=O)N[C@@H](C)C(=O)N[C@H](C(=O)N[C@@H](CCC(N)=O)C(=O)N[C@H](C(=O)N[C@H](C(=O)NCC(=O)N[C@@H](CCC(N)=O)C(=O)N[C@@H](C)C(=O)N[C@H](C(=O)N[C@@H](CO)C(=O)N[C@H](C(=O)N[C@@H](C)C(=O)N[C@@H](CCCCN)C(N)=O)[C@@H](C)CC)[C@@H](C)O)C(C)C)C(C)C)C(C)C)[C@@H](C)CC	broth microdilution		20 h, 37 °C	131 ± 46.1 µg/mL
CCCCCCCCCCCc1cc(O)cc(O)c1	broth microdilution	strain 168	overnight, 37 °C	1 to 8 µg/mL
CC[C@H](C)[C@H](NC(=O)[C@H](CO)NC(=O)[C@@H](NC(=O)[C@H](C)NC(=O)[C@H](CCC(N)=O)NC(=O)CNC(=O)[C@@H](NC(=O)[C@@H](NC(=O)CNC(=O)[C@@H](NC(=O)[C@H](C)NC(=O)[C@@H]1CCCN1C(=O)CNC(=O)[C@H](C)NC(=O)[C@H](CCCCN)NC(=O)[C@@H](NC(=O)[C@@H](NC(=O)CNC(=O)[C@H](CC(=O)O)NC(=O)[C@H](CCCNC(=N)N)NC(=O)[C@@H](NC(=O)[C@H](CCCCN)NC(=O)[C@H](CCCNC(=N)N)NC(=O)CNC(=O)[C@@H](NC(=O)[C@H](CCCCN)NC(=O)[C@H](CCC(=O)O)NC(=O)[C@@H](NC(=O)[C@H](CCCCN)NC(=O)[C@H](CCCCN)NC(=O)[C@H](CC(C)C)NC(=O)[C@H](Cc1ccccc1)NC(=O)[C@H](CCCCN)NC(=O)[C@H](Cc1c[nH]c2ccccc12)NC(=O)[C@@H](N)CCCNC(=N)N)[C@@H](C)CC)C(C)C)C(C)C)C(C)C)[C@@H](C)CC)C(C)C)C(C)C)C(C)C)[C@@H](C)O)C(=O)N[C@@H](Cc1ccc(O)cc1)C(=O)N[C@@H](CCCCN)C(N)=O	broth microdilution		20 h, 37 °C	50 ± 19 µg/mL
O=C(O)CCN1C(=O)/C(=C/c2ccc(-c3ccc(Cl)cc3Cl)o2)SC1=S	microbial growth	ATCC6051		~0.43 µg/mL

Repeated from above:
Structure (SMILES)	assay	system	setting	MIC
CC[C@H](C)[C@H](N)C(=O)N[C@@H](CCCCN)C(=O)N[C@@H](Cc1c[nH]c2ccccc12)C(=O)N[C@@H](CCCCN)C(=O)N[C@@H](CCCCN)C(=O)N[C@@H](CC(C)C)C(=O)N[C@@H](CC(C)C)C(=O)N[C@@H](CCCNC(=N)N)C(=O)N[C@@H](C)C(=O)N[C@@H](C)C(=O)N[C@@H](CCCCN)C(=O)N[C@@H](CCCNC(=N)N)C(=O)N[C@H](C(=O)N[C@@H](CC(C)C)C(N)=O)[C@@H](C)CC	broth microdilution	168		12.5 µM
